Published values collected from several papers.
Each numbered part is a random draw from the data of one study; scales do not carry over between parts.

Study 1
Target: RNA binding protein fox-1 homolog 2, RRM domain, GST-SBP tag (RBFOX2, Homo sapiens, UniProt O43251-10, residues 100-194)
Technique: RNA Bind-n-Seq
Form: RNA
Sample: in vitro
Tested at: 365 nM
Setting: natural RNA segment, single round, ends assumed
Relative to: no-protein control
Direction: higher = stronger binding
All sequences stand within: GGGAGUUCUACAGUCCGACGAUC … UGGAAUUCUCGGGUGCCAA
Construct (chain): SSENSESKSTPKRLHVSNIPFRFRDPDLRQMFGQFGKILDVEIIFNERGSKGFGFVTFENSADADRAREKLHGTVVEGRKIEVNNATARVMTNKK
Strand	RBNS enrichment (R)
UUCACAUGCUCAAUUGAUAUUUUUUGCUGCUUCCUCGGCCCAGGGAGAAAGCAUGUCAGGACAGAGCUGUUGGAUUGGCUUUGAUAGAGGAAUGGGGAUGAUGUAAGUUU	1.12
CAAGACUUUGUACCGUCACUCAUUUGUAUAAGUGCGCUUCGUCACUGCACGGGCCCUGCUCCUGCAACAUGGAACUGUCGCGUAGCACCUGUACAAGAGACCCGGCCACU	0.26
CUGUCUCAGGCCUCAAGCCAGGCACCCAUCUCUGGAUGCCAGUCUAUAGCGGGUACCAGAGGAAAGCUGGCAGCAGUAACUCUCUCCCCAUGCAUCCUAGCCAGUGAGUG	0.306
ACUCCCUACCCCUCUCCUCCCUAAUUCUGUCUUCCUUCUCUCCACUCUUUUAAGAUUCAGAGGGUACAGAACAACCUCUAUUAUUUCAGAGUACCCUUGAGAAUUGAAAU	1.6
ACAGUACAGUGCAGGAGAAGCAGCUGAGUUGGCCUGGUCUAAGGAUACCCCCUAGCAAACUUGGCCCUCUCCAUCUGUUCUGGGACUCUAUACUUCCCUAACCUGGAUCC	0.29
CUAUUUCAUUGGAUCAGGAAAUCAUCCACUUGCCAACCAGGCUCCAGUACUGGGAAACAUGGAAUGUGGCAAACUGUCCCACACUCCAAGCCAUUCUCCAAGGGGGCCUG	0.258
UCUCAUCCAGGGUUCCAUGAAAGUUACCCAGGGUCCUCAUGUCCUUCCUUAGAGCCUGAGUGGUGUGAGGUGACAGGUCUCUCUCUCCACUGCCCCUUUCUGGUUUAAAA	0.325
GCAGGCUUCUUAUGCCGUUGGUAUACAGGGCAGGAAAGAGAGGAAUAAAGGGAGAGAGCAGUGUGGAAACCACGGUGGUUUUGCUUUGUUCUUACUAGGUUUUGGUGCCA	0.44
UGUGGGAGGGGAAAGGAGAAACAAAGCUAGUCAGAUGUGAAUUGUAUCUGUUGUAAUAAACAUGUUUAAACAAACACAUUUUGUUACUUUUUUUCCCUUCGGCCGGUACA	2.43
CAUGGGGAUUAAAGCUAUGGUUAUAUUAGCACCAAACUUCUACAAACCAAGCUCAGGGCCCCAACCCUAGAAGGGCCCAAAUGAGAGAAUGGUACUUAGGGAUGGAAAAC	0.273
UCAUUAACUAAGAAUAAUAAAUUUGCUCCUAUCCUGGGUCACGUGCCACGGUAAGAUGUAUAGUAUGGCCAUCCACACUAAUUGUAGGAGGACAGCUAAAUGGACAGUCA	0.37
UCAGAGACCACAGACCACAGUGAUUUUUCUUUUCCCUUGUUUAAUUAGGCAAUACCCUUGUUAAUUGCCCUUUGGCAACUAACUUAACCAUGUGCUUCCCACACAGUACA	0.544

Study 2
Target: UBE2E3 UBC core domain (UniProt Q969T4)
Chain of UniProt Q969T4 (whole entry, looked up): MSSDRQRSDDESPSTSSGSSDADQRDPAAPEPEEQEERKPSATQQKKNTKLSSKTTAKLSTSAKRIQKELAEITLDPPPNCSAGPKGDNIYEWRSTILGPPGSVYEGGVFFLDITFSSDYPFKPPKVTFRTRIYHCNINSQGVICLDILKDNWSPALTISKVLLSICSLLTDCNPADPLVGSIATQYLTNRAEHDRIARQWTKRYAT
Technique: yeast two-hybrid
Sample: yeast
Setting: mostly zero background
Relative to: not given
Direction: higher = stronger interaction
B1: RNF175 RING domain (UniProt Q8N4F7); chain LPTRSLSDNICAVCGQKIIVELDEEGLIENTYQLSCNHVFHEFCIRGWCIVGKKQTCPYCKEKVDLKRMIS
B2: TRIM3 RING domain (UniProt O75382); chain VQPMDKQFLVCSICLDRYQCPKVLPCLHTFCERCLQNYIPAQSLTLSCPVCRQTSILPEQGV
B3: RNF112 RING domain (UniProt Q9ULX5); chain QPMAPRELPTCSICLERLRDPISLDCGHDFCIRCFSTHRLPGCEPPCCPECRKICKQKRGLR
B4: RNF4 RING domain (UniProt P78317); chain TGLRPSGTVSCPICMDGYSEIVQNGRLIVSTECGHVFCSQCLRDSLKNANTCPTCRKKINHKRYHP
B5: RNF149 RING domain (UniProt Q8NC42); chain EKGIDVDAENCAVCIENFKVKDIIRILPCKHIFHRICIDPWLLDHRTCPMCKLDVIKALGYW
B6: RNF150 RING domain (UniProt Q9ULK6); chain DKETESDFDNCAVCIEGYKPNDVVRILPCRHLFHKSCVDPWLLDHRTCPMCKMNILKALGIP
B7: TRIM35 RING domain (UniProt Q9UPQ4); chain PSRSFKEELLCAVCYDPFRDAVTLRCGHNFCRGCVSRCWEVQVSPTCPVCKDRASPADLRT
B8: UBE4A RING domain (UniProt Q14139); chain LQQQEEETYADACDEFLDPIMSTLMCDPVVLPSSRVTVDRSTIARHLLSDQTDPFNRSPLTMDQIRPNTELKEKIQRWLAERKQQKEQLE
B9: TRIM10 RING domain (UniProt Q9UDY6); chain SVTSLADEVNCPICQGTLREPVTIDCGHNFCRACLTRYCEIPGPDLEESPTCPLCKEPFRPGSFRP
B10: RNF14 RING domain (UniProt Q9UBS8); chain IKCFNSKLFLCSICFCEKLGSECMYFLECRHVYCKACLKDYFEIQIRDGQVQCLNCPEPKCPSVATPGQVK
Sequence	lacZ reporter activity
B1 (RNF175 RING domain)	0
B2 (TRIM3 RING domain)	0
B3 (RNF112 RING domain)	0
B4 (RNF4 RING domain)	2950
B5 (RNF149 RING domain)	0
B6 (RNF150 RING domain)	2880
SYEDKSNDFVCPICFDMIEEAYMTKCGHSFCYKCIHQSLEDNNRCPKCNYVVDNIDHLY (COP1 RING domain (UniProt Q8NHY2))	0
FLKKLEQSFMCVCCQELVYQPVTTECFHNVCKDCLQRSFKAQVFSCPACRHDLGQNYIMI (UHRF2 RING domain (UniProt Q96PU4))	0
MANWVFCNRCFQPPHRTSCFSLTNCGHVYCDACLGKGKKNECLICKAPCRTVLLSK (RNF212 RING domain (UniProt Q495C1))	0
LKQVSIRENCCSLCCDEVADTQLKPCGHSDLCMDCALQLETCPLCRKEIVSRIRQI (RSPRY1 RING domain (UniProt Q96DX4))	0
B7 (TRIM35 RING domain)	0
B8 (UBE4A RING domain)	0
B9 (TRIM10 RING domain)	0
B10 (RNF14 RING domain)	0

Study 3
Target: Sal-like protein 4, full length isoform B (SALL4, Homo sapiens, UniProt Q9UJQ4-2, residues 1-616)
Technique: universal PBM
Form: double-stranded DNA, one strand shown
Sample: in vitro
Tested at: not given
Setting: 8-mer, flanks averaged, mean of replicates
Direction: higher = stronger binding
Target sequence (chain): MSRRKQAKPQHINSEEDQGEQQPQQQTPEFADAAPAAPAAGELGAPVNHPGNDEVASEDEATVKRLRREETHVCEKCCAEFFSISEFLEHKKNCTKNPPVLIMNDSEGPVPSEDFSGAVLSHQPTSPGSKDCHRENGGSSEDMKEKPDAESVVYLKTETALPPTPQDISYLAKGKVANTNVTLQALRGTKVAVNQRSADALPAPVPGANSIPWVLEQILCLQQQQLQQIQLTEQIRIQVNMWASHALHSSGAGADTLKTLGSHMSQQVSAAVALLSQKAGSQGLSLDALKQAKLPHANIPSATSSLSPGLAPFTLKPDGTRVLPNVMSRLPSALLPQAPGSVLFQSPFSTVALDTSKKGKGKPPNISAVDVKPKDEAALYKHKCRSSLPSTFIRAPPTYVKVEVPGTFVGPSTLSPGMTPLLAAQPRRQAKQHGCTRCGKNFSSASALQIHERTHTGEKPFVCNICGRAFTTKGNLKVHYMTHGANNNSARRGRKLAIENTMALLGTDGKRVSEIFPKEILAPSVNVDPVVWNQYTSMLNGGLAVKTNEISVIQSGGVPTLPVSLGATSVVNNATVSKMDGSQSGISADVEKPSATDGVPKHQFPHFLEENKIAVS
Strand	E-score
CGTCAAAC	0.0139
AGGATCTG	-0.225
CATAGCTC	-0.175
CGGAAAAA	0.146
AGTGATTC	0.0391
ATTCATTA	0.361
AAACTTTA	0.23
CTCTTGCA	-0.198
CTACTCTA	0.125
GCTCGGTA	-0.0442
TGCAGACA	0.179
ACGCGGCC	-0.142
ACTCCAGG	-0.197
ACCTAAAA	0.049
CTGGCTTC	-0.277
CGTGCTTA	0.0375
AGCTCGTA	-0.0129

Study 4
Target: RING finger protein unkempt homolog, zinc fingers 1-6, GST-SBP tag (UNK, Homo sapiens, UniProt Q9C0B0, residues 30-357)
Technique: RNA Bind-n-Seq
Form: RNA
Sample: in vitro
Tested at: not given
Setting: RNA with constant flanks, ends assumed
Relative to: input RNA pool
Direction: higher = stronger binding
All sequences stand within: GGGAGUUCUACAGUCCGACGAUC … CAACAGAGGAUUGAGCAUCA
Residues (chain): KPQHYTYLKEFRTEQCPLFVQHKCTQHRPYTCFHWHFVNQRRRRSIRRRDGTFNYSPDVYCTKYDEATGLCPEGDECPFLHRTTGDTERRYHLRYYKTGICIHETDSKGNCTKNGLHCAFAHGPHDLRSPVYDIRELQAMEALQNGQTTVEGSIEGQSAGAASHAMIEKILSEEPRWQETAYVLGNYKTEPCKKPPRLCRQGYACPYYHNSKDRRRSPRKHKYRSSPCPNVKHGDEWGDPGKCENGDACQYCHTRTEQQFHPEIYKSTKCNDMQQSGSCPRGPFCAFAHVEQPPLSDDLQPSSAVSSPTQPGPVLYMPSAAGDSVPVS
Strand	bound/input enrichment [ratio]
CCAUCCCUCAGUGACAGUAUGCCUUCUGUAGCAGAUUCUCACUCUAGUCAUUUUUCUGAAUUCCGUUGUUCUGACCUAGAAAGCAUGAAAACUUCUUGUAGUCAUGGUUCCAGUGAUUAU	8.24
GUGAGCUGUGUGCCUUGUUUGGGGGGUGUGGGGGACUUCUCCCAGUGGUGACACUGAACUUCCGGAGAAAAUGCGAAUGGGUAGGAGGACGGUCUUAUUUGAGUCACUUAAGGAGCAAGG	0.621
GGAAUAUUCAUUGUACUGAAUAUUACCCUUGUGCUUGCCGCUGUAUUUAAACUUGAAACAGACCGAAGUAUAUGGCCCUUGAUAAGAAUCUAUCGGGGUGGCUUUCUUCUGAUUGAAUUC	0.106
CCUCAGGCUGUGCAAAGGACACUGAGAGCCUCUUCCACAUAGAAAUACUCUGCUCUCGCCGCCUCUGGAAAGGCCCUGCAGCCCGACAUUGCUGUAGAGCUGGAGGAUCCGUGAGAUGAG	0.378
UAUGAUGAAAAUAUUAACAUUUCUAGAUUAAAAGUAUGACUGAUCUUUCGUUAUCCACUGCCGCAAGGUGAAAGCACACACAAUCGAAAUCCAUAGAUAAUCAGUGUUUAGCCUUCUCCU	0.586
GCGUUCGCGGGGCCGAGGCCAUGGCUUUCUGGGCGGGGGGUUCGCCCAGCGUCGUGGACUAUUUCCCCCGCGAGGACUUCUACCGCUGCGGCUACUGCAAGAACGAGUCGGGCAGCCGCU	0.299
GAGCAGAGAGUGGUGAGGCCAGCCACUGCCUGUGCGUGCAGUGCAGUGUUGGUAAGAGAAGCCUACCCCGGAGCUGGUGAUGAUGAAGGCUGGGCUGGGAAAGCAUUCUCUGUCCUGCUC	0.0829
GUAUUUGUCCCAUUUUUGUUUUUAAAUGUAUUUUUAUAAGAUGUAUACAUGUGUAUUUGUAACCGAUUUUUUGAUUAUAUAAUACUGAAACAUCUCUCAAUAUUAUGAAAAAUGUUAAAA	0.29
CACUUGAUGCCCCCAAGAAUCCUAGUAGAAUGUUUACUACCAAAUGGAAUGAUAGUGACUUCCGAAUGCCUCCGUGAGGCUACAUUAAUAACCAUAAAGCAUGAACUAUUUAAAGAAGCA	0.927
AGAGAACCAGCCCUGGAUGGCGGGUUUCAGAUGCAUUAUGAGAAGACCCCGUUUGAUCAGUCCGCUUUUAUCGAAGAGCUUUUUUCACUGAUGGUUGUCAAUCGUCUGACCGAAGAACUC	0.365
GUACUGCUGGUAUUGUACCAGGAACAUUUUCUUUUAUUGUUACUUGCUUUUUAAACUUUGUUCCGCCACUUAAAGAAAACCUGCUCAUGGCACAACUUGCCUCAAAUCCAUUCCAAGUUG	0.364

Repeated from above (study 2):
Sequence	lacZ reporter activity
B1 (RNF175 RING domain)	0
B3 (RNF112 RING domain)	0
B10 (RNF14 RING domain)	0
B7 (TRIM35 RING domain)	0
